# Experimental data collected from several papers.
# Compare with care: the assays were run in different laboratories. ± gives the spread as reported.
# CDK2: Cyclin-dependent kinase 2 (CDK2, Homo sapiens, UniProt P24941)
# ESR1: Estrogen receptor (ESR1, Homo sapiens, UniProt P03372)
# Sequence of UniProt P03372 (whole entry, looked up): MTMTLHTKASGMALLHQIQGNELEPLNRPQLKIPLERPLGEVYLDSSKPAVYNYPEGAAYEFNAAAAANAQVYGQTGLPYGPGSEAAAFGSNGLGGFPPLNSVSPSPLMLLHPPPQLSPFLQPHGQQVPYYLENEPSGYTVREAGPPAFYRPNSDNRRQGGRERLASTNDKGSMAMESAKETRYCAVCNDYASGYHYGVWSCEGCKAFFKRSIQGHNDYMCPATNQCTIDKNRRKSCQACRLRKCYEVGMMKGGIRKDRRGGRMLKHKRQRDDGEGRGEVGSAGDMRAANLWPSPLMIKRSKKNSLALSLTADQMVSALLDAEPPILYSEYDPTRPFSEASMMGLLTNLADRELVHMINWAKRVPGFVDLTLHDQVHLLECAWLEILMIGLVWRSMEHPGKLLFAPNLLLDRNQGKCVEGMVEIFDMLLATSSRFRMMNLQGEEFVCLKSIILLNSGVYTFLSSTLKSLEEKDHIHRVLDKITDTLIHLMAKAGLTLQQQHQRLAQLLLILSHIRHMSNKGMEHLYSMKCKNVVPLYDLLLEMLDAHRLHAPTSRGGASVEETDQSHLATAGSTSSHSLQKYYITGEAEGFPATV
# RORC: Nuclear receptor ROR-gamma (RORC, Homo sapiens, UniProt P51449)
# Sequence of UniProt P51449 (whole entry, looked up): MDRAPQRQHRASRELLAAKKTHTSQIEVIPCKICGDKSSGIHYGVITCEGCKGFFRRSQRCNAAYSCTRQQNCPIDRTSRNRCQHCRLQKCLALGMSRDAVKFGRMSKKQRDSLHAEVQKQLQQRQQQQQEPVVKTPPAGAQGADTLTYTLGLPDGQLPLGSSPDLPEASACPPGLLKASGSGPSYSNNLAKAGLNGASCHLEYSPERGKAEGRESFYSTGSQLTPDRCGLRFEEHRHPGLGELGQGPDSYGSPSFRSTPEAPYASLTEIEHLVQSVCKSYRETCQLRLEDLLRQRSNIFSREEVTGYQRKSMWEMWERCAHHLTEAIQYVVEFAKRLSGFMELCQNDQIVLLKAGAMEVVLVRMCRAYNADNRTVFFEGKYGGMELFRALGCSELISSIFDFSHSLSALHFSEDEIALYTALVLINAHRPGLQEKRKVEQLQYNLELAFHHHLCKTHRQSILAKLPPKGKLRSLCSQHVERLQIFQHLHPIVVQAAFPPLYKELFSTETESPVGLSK
# DRD3: D(3) dopamine receptor (DRD3, Homo sapiens, UniProt P35462)
# Sequence of UniProt P35462 (whole entry, looked up): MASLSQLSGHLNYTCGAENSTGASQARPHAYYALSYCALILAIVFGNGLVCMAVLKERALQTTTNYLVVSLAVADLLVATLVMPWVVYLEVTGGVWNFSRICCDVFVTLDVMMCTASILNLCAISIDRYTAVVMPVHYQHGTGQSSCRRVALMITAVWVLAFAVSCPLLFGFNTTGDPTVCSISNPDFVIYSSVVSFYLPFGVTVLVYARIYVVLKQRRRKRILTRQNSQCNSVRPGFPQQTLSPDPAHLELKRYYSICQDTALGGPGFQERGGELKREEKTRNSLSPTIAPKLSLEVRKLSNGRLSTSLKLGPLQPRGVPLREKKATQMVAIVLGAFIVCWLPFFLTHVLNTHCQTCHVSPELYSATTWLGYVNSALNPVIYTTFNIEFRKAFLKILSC
# SLC10A1: Hepatic sodium/bile acid cotransporter (SLC10A1, Homo sapiens, UniProt Q14973)
# Sequence of UniProt Q14973 (whole entry, looked up): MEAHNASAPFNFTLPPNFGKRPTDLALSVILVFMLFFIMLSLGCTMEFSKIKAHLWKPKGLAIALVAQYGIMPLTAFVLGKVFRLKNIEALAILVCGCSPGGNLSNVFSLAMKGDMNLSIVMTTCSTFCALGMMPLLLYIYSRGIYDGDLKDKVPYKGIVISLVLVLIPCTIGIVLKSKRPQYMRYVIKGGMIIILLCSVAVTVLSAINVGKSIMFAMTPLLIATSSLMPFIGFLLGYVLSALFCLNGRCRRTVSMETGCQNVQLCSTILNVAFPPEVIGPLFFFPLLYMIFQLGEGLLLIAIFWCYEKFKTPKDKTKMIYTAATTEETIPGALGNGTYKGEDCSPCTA
# CDK2 with cyclin A: Cyclin-dependent kinase 2, with cyclin A (CDK2, Homo sapiens, UniProt P24941)
# MBLAC2: MBLAC2 (Homo sapiens, UniProt Q68D91)
# Sequence of UniProt Q68D91 (whole entry, looked up): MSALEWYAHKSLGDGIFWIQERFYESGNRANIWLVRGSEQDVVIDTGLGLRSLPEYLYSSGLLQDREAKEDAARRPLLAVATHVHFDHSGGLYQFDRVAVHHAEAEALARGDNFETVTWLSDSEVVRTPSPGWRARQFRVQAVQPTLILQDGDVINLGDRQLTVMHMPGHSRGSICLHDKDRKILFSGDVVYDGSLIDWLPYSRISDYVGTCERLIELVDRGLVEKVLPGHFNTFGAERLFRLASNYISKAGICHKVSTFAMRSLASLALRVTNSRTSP
# Sequence of UniProt P45984 (whole entry, looked up): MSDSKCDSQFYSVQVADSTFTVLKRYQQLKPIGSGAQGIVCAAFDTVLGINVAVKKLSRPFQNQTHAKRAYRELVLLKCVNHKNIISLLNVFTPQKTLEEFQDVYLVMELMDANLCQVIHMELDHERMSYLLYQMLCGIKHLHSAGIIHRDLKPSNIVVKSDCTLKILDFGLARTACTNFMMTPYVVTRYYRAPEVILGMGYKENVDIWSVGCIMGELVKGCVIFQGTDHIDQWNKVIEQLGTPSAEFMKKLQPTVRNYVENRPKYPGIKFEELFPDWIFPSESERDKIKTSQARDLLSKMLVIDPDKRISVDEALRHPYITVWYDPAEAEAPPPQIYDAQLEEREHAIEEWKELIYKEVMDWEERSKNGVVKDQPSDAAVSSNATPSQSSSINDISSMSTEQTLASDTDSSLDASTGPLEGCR
# Sequence of UniProt P14618 (whole entry, looked up): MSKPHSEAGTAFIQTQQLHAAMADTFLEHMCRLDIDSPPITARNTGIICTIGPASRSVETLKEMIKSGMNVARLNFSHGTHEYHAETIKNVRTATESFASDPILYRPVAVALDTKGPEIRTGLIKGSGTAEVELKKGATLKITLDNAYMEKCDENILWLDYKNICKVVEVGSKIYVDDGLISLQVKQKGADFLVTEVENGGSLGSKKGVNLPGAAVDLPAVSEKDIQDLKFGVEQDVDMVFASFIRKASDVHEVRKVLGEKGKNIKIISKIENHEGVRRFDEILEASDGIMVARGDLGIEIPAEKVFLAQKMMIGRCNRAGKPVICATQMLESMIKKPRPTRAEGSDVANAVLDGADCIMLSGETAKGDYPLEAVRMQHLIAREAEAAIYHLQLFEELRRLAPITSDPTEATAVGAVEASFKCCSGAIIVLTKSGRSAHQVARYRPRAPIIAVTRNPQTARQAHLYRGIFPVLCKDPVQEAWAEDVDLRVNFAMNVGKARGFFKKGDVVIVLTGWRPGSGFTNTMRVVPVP
# Sequence of UniProt Q86UW9 (whole entry, looked up): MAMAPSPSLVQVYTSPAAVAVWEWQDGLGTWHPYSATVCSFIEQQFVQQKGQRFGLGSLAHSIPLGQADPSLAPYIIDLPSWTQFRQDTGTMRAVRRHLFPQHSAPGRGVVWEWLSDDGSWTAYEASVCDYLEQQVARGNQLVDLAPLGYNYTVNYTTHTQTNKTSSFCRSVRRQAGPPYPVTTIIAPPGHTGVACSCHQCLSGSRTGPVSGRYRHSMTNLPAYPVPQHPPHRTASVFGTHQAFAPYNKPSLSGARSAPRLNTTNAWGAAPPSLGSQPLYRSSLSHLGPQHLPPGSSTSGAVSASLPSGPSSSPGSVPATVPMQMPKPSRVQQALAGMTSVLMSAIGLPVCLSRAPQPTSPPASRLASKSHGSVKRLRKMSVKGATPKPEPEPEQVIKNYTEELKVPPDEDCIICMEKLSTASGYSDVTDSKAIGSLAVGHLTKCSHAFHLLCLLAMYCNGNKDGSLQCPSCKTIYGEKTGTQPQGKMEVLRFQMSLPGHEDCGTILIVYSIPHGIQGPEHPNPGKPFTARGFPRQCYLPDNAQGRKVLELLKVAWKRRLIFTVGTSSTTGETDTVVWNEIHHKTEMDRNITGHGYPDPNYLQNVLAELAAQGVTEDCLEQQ
target,assay,system,setting,endpoint,result,SMILES
CDK2,binding,,,Kd,> 100 µM,O=C(CSc1nnc(-c2ccccc2O)n1-c1ccccc1)Nc1cccc(C(=O)O)c1
ESR1,"array formation, agonist",ERα-GFP PRL-HeLa,1 h,EC50,1.12 µM,O=C1C[C@@H](c2ccc(O)cc2)Oc2cc(O)cc(O)c21
RORC,"IL-17 production, inverse agonist",HEK-293T,with: ursolic acid,EC50,0.18 µM,O=S(=O)(c1cccc(C(F)(F)F)c1)N1CCc2ccc(OCc3c(Cl)cncc3Cl)cc21
ESR1,"array formation, agonist",ERα-GFP PRL-HeLa,1 h,EC50,2.46 µM,COc1c(O)cc2occ(-c3ccc(O)cc3)c(=O)c2c1O
RORC,"reporter gene, agonist, GAL4 luciferase reporter",,with: ursolic acid 2 µM,EC50,1.2 ± 0.24 µM,COc1c(Cl)cccc1COc1ccc2c(c1)N(S(=O)(=O)c1cccc(C(F)(F)F)c1)CC2
DRD3,"β-arrestin recruitment, antagonist, PathHunter",,with: dopamine EC80,IC50,> 100 µM,Cc1[nH]cc(C(=O)N(C)C)c1S(=O)(=O)Nc1ccc(C(F)(F)F)c(Cl)c1
SLC10A1,"taurocholate uptake, inhibitor",NTCP-expressing HEK293,with: 10 µM taurocholate,Ki,41.5 ± 8.1 µM,CNC(=O)c1cc(Oc2ccc(NC(=O)Nc3ccc(Cl)c(C(F)(F)F)c3)cc2)ccn1
CDK2 with cyclin A,bio-layer interferometry (Octet RED),,"298 K, CDK2-cyclin A complex, averaged",Kd,0.00843 µM,NS(=O)(=O)c1ccc(NN=C2C(=O)Nc3ccc(C(=O)O)cc32)cc1
RORC,"reporter gene, agonist, GAL4 luciferase reporter",,with: ursolic acid 2 µM,EC50,2.3 ± 0.41 µM,O=S(=O)(c1cccc(Cl)c1)N1CCc2ccc(OCc3c(F)cccc3Cl)cc21
CDK2 with cyclin A,,,,Kd,> 100 µM,COc1ccc(C(=O)CSc2nnc(-c3ccc(OC)c(OC)c3)n2-c2ccccc2)cc1
MBLAC2,"inhibitor, competition pulldown",SW620 and MV4-11 lysate,1 h,Kd,1.67 µM,O=C(CCCCCCC(=O)Nc1ccc([C@H]2O[C@@H](CSc3nc(-c4ccccc4)c(-c4ccccc4)o3)C[C@@H](c3ccc(CO)cc3)O2)cc1)NO
DRD3,"β-arrestin recruitment, antagonist, PathHunter",,with: dopamine EC80,IC50,> 100 µM,Cc1[nH]c(C)c(S(=O)(=O)Nc2ccc(C(F)(F)F)c3cccnc23)c1C(=O)N1CCC(F)(F)C1
"Pyruvate kinase PKM (PKM, Homo sapiens, UniProt P14618)","enzyme activity, activator",,with: 0.2 mM PEP and 2 mM ADP,AC50,0.0434 ± 0.0217 µM,O=C(COP(=O)(O)O)[C@@H](O)[C@H](O)[C@H](O)COP(=O)(O)O
"Mitogen-activated protein kinase 9, isoform alpha-2 (MAPK9, Homo sapiens, UniProt P45984)",,,,IC50,3.62 µM,CN1CCN(c2ccc(Nc3ncc4cc(C#N)c(=O)n(C5CCCC5)c4n3)cc2)CC1
ESR1,"array formation, agonist",ERα-GFP PRL-HeLa,1 h,EC50,0.963 µM,O=C1C[C@@H](c2ccc(O)c(O)c2)Oc2cc(O)cc(O)c21
RORC,"IL-17 production, inverse agonist",HEK-293T,with: ursolic acid,EC50,0.095 µM,O=S(=O)(c1cccc(C(F)(F)F)c1)N1c2cc(OCc3c(Cl)cncc3Cl)ccc2CC1C(F)(F)F (stereo not drawn)
SLC10A1,"taurocholate uptake, inhibitor",NTCP-expressing HEK293,with: 10 µM taurocholate,Ki,254 ± 193 µM,O=C(c1ccccc1)c1ccc2n1CCC2C(=O)O (stereo not drawn)
DRD3,"β-arrestin recruitment, antagonist, PathHunter",,with: dopamine EC80,IC50,> 100 µM,Cc1[nH]c(C)c(S(=O)(=O)Nc2ccc(C(F)(F)F)c(Cl)c2)c1C(=O)N1CCNCC1
CDK2,binding,,,Kd,> 100 µM,O=S(=O)(NCCSc1ccccn1)c1ccc(Br)cc1
ESR1,"array formation, agonist",ERα-GFP PRL-HeLa,1 h,EC50,1.86 µM,O=c1cc(-c2ccccc2)oc2cc(O[C@@H]3O[C@H](CO[C@@H]4O[C@H](CO)[C@@H](O)[C@H](O)[C@H]4O)[C@@H](O)[C@H](O)[C@H]3O)c(O)c(O)c12
CDK2 with cyclin A,,,,Kd,> 100 µM,COc1ccccc1NC(=O)CSc1nnc(-c2ccc(F)cc2)n1C
ESR1,"array formation, agonist",ERα-GFP PRL-HeLa,1 h,EC50,1.05 µM,COc1c(-c2ccccc2)oc2cc(O)cc(O)c2c1=O
CDK2,binding,,,Kd,> 100 µM,COc1cccc(NC(=O)CSc2nnnn2C)c1
SLC10A1,"taurocholate uptake, inhibitor",NTCP-expressing HEK293,with: 10 µM taurocholate,Ki,84.7 ± 2.2 µM,CC(C)C(=O)Nc1ccc([N+](=O)[O-])c(C(F)(F)F)c1
ESR1,"array formation, agonist",ERα-GFP PRL-HeLa,1 h,EC50,1.31 µM,O=c1cc(-c2ccccc2)oc2ccc(O)cc12
RORC,"reporter gene, agonist, GAL4 luciferase reporter",,with: ursolic acid 2 µM,EC50,7.8 ± 2.1 µM,O=S(=O)(c1cccc(-c2ccccc2)c1)N1CCc2ccc(OCc3c(F)cccc3Cl)cc21
DRD3,"Go activation, antagonist, BRET",,with: dopamine,IC50,> 100 µM,Cc1[nH]c(C)c(S(=O)(=O)N2CCC(F)(F)C2)c1S(=O)(=O)N1CCC(F)(F)C1
MBLAC2,"inhibitor, competition pulldown",SW620 and MV4-11 lysate,1 h,Kd,0.0867 µM,CN(C)Cc1c(C(=O)NCCOc2ccc(C(=O)NO)cc2)oc2ccccc12
DRD3,"Go activation, antagonist, BRET",,with: dopamine,IC50,> 100 µM,Cc1c(C(=O)N2CCC(F)(F)C2)c(S(=O)(=O)Nc2ccc(C(F)(F)F)c(Cl)c2)c(C)n1C
SLC10A1,"taurocholate uptake, inhibitor",NTCP-expressing HEK293,with: 10 µM taurocholate,Ki,339 ± 433 µM,CNC(=C[N+](=O)[O-])NCCSCc1ccc(CN(C)C)o1
CDK2,binding,,,Kd,> 100 µM,COc1ccccc1-n1nnnc1SCC(=O)Nc1ccccc1SC
SLC10A1,"taurocholate uptake, inhibitor",NTCP-expressing HEK293,with: 10 µM taurocholate,Ki,1010 ± 652 µM,CCn1cc(C(=O)O)c(=O)c2ccc(C)nc21
"DTX2 (Homo sapiens, UniProt Q86UW9)","competitor, competition MS pulldown",SW-620 cell lysate,with: photo-immobilized beads,Kd,8.7 µM,CC(C)(COP(=O)(O)OP(=O)(O)OC[C@H]1O[C@@H](n2cnc3c(N)ncnc32)[C@H](O)[C@@H]1OP(=O)(O)O)[C@@H](O)C(=O)NCCC(=O)NCCS
SLC10A1,"taurocholate uptake, inhibitor",NTCP-expressing HEK293,with: 10 µM taurocholate,Ki,255 ± 118 µM,CN(C)C(=N)N=C(N)N
DRD3,"β-arrestin recruitment, antagonist, PathHunter",,with: dopamine EC80,IC50,> 100 µM,Cc1cc(S(=O)(=O)Nc2ccc(C(F)(F)F)c(Cl)c2)c(C)[nH]1
CDK2 with cyclin A,,,,Kd,> 100 µM,COc1ccc(OCC(=O)Nc2cc(-c3nn4c(C)nnc4s3)ccc2C)cc1
